Literature values, collected from citations in different studies.
Lines come from different studies, so protocols differ. ± marks the error that the study gave.
SLC6A3: Sodium-dependent dopamine transporter (SLC6A3, Homo sapiens, UniProt Q01959)
Chain of UniProt Q01959 (whole entry, looked up): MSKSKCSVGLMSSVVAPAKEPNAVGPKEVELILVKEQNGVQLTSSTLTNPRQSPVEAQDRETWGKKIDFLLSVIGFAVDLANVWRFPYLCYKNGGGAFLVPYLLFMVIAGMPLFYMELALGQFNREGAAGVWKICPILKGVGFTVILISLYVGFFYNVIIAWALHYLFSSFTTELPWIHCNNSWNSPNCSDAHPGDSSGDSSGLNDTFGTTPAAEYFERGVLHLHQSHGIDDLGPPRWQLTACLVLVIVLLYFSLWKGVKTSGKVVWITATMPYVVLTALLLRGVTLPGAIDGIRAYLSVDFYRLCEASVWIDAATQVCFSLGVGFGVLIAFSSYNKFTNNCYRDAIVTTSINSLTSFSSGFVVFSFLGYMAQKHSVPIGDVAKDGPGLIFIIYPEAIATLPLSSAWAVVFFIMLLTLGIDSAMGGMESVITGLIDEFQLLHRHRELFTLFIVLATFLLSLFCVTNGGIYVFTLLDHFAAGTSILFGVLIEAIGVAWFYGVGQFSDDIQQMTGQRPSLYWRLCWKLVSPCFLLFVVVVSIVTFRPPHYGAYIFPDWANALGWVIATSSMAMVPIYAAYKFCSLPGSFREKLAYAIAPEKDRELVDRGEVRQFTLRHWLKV
Slc6a3: Sodium-dependent dopamine transporter (Slc6a3, Rattus norvegicus, UniProt P23977)
Chain of UniProt P23977 (whole entry, looked up): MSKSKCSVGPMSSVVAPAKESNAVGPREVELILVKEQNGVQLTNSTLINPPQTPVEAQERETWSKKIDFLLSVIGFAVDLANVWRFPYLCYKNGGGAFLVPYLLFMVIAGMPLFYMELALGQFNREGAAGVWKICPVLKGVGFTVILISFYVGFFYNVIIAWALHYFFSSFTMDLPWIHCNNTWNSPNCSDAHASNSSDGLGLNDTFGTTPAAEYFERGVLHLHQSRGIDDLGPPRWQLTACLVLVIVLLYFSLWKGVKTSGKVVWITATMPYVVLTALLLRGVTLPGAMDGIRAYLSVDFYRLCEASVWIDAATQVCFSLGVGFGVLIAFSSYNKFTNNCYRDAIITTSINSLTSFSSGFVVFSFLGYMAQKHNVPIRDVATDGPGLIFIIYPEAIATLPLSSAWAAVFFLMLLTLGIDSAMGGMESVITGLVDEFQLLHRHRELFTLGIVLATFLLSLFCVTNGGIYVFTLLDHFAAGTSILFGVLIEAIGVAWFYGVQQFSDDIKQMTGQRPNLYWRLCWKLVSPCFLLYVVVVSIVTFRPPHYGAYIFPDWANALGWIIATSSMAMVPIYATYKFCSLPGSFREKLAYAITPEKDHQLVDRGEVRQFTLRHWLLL
PA endonuclease domain: Polymerase acidic protein, endonuclease domain (PA, Influenza A virus, UniProt C3W5S0)
Slc6a2: Transporter (Slc6a2, Rattus norvegicus, UniProt Q63380)
Chain of UniProt P35367 (whole entry, looked up): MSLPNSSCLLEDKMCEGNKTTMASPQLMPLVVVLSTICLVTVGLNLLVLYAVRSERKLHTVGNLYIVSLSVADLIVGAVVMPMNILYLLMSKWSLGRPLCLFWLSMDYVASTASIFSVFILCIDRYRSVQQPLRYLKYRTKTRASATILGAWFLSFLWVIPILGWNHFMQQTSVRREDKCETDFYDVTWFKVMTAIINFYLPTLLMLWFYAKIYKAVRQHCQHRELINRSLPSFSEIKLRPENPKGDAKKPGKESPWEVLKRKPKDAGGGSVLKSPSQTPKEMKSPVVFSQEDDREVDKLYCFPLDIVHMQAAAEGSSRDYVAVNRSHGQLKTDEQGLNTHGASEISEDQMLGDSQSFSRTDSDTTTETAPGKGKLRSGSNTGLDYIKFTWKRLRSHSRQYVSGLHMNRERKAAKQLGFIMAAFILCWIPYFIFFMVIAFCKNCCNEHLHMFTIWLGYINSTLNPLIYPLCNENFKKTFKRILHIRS
Chain of UniProt P18507 (whole entry, looked up): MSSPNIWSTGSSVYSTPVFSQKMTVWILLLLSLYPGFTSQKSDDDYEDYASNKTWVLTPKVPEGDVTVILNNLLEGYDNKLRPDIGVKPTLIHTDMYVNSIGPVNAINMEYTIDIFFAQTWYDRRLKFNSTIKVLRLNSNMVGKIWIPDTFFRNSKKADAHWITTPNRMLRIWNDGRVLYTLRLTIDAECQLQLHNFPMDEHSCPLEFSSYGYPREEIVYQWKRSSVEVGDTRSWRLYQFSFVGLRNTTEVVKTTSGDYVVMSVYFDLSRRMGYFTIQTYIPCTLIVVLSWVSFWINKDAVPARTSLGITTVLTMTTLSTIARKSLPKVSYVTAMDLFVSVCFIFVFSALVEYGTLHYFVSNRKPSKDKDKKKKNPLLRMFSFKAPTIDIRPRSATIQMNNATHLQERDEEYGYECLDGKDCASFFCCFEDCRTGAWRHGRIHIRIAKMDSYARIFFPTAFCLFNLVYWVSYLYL
Chain of UniProt P28472 (whole entry, looked up): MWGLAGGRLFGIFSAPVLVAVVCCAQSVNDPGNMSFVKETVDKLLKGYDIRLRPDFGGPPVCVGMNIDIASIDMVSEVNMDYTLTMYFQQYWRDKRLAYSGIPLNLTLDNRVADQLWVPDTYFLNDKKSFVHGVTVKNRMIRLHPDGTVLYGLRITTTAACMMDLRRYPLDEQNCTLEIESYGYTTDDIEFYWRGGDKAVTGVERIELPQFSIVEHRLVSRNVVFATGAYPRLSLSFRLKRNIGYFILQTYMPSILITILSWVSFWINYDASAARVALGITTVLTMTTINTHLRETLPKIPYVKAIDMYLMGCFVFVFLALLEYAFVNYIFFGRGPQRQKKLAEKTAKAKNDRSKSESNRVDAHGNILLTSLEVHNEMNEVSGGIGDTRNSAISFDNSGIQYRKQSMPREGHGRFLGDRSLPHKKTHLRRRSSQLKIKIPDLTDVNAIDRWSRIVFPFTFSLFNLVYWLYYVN
Chain of UniProt P14867 (whole entry, looked up): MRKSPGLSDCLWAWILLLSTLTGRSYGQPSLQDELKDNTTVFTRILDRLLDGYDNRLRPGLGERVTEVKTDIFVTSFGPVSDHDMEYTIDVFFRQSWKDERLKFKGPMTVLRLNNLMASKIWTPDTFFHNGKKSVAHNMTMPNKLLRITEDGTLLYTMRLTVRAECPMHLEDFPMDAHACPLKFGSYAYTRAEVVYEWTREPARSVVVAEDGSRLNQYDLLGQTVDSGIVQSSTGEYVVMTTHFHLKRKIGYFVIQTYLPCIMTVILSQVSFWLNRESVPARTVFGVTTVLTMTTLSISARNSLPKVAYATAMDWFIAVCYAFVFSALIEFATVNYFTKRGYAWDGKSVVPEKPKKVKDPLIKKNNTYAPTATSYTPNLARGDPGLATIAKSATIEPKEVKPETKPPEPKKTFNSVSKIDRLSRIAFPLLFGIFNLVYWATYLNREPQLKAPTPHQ
Chain of UniProt P31652 (whole entry, looked up): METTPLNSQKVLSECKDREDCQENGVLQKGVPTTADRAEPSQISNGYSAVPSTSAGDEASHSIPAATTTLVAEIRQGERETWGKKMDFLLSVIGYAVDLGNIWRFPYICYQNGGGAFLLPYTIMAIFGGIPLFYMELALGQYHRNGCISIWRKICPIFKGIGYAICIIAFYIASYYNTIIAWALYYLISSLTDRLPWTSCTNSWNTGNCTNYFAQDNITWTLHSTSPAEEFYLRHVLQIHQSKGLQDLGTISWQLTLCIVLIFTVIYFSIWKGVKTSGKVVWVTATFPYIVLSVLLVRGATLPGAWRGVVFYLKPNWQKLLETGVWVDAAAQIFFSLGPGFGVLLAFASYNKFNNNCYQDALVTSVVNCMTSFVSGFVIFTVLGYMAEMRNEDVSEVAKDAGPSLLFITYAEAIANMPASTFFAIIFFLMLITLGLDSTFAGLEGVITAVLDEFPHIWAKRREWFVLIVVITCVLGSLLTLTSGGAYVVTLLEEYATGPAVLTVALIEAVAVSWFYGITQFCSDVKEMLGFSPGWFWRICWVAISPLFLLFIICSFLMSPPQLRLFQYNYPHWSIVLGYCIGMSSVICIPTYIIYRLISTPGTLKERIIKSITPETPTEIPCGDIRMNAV
Chain of UniProt P50406 (whole entry, looked up): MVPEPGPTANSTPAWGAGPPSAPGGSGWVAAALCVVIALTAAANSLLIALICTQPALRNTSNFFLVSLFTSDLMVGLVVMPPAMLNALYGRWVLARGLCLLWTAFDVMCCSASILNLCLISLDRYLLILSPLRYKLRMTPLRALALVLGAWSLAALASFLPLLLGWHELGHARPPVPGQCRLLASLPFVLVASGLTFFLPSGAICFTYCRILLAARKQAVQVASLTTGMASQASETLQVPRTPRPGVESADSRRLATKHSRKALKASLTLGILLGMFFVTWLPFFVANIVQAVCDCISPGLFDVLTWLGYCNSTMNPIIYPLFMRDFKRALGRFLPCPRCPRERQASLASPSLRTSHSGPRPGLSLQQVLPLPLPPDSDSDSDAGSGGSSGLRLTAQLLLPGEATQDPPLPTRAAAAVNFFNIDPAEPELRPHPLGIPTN

C[C@]12CC[C@@H](O)C[C@@H]1CC[C@@H]1[C@@H]2CC[C@]2(C)C(=O)CC[C@@H]12 — IC50 (GABAA receptor picrotoxin site, rat; binding; rat brain membranes): 414 ± 127 nM
CCCC(NC)C(=O)c1ccc2c(c1)OCO2 (stereo not shown) — IC50 (SLC6A3; [3H]dopamine uptake, inhibitor; HEK293 expressing SLC6A3): 167 ± 37 nM
CC(NC1CC1)C(=O)c1ccc(Cl)c(Cl)c1 (stereo not shown) — IC50 (Slc6a3; dopamine uptake, inhibitor; rat brain synaptosomes): 425 ± 22 nM
Nc1ncnc2c1nc(Br)n2C1OC2COP(O)(=S)OC2C1O (stereo not shown) — Km or Ki (PDE2A; cyclic nucleotide hydrolysis, substrate or inhibitor, isothermal titration calorimetry): 23300 nM
O=c1[nH]c(-c2ccc(-c3nnn[nH]3)cc2)c(-c2ccc(F)cc2)cc1O — IC50 (PA endonuclease domain; inhibitor): 23 nM
C=CCN(CC=C)CCc1c[nH]c2ccc(OC)cc12 — Ki (5-hydroxytryptamine receptor 6 (HTR6, Homo sapiens, UniProt P50406)): 153 nM
CNC(C)C(=O)c1ccc2c(c1)OCO2 (stereo not shown) — IC50 (Sodium-dependent serotonin transporter (Slc6a4, Rattus norvegicus, UniProt P31652)): 1020 ± 59 nM
CNC1(c2ccccc2Cl)CCCCC1=O (racemic) — IC50 (α7 nicotinic acetylcholine receptor; non-competitive inhibitor): ~20000 nM
N#Cc1ccc(-c2[nH]c(=O)c(O)cc2-c2ccc(F)cc2)cc1 — IC50 (PA endonuclease domain; inhibitor): 54 nM
CNC(C)C(=O)c1ccc(C)cc1 (stereo not shown) — IC50 (Slc6a2): 487 ± 66 nM
CCOC(=O)c1cncn1C(C)c1cccc2ccccc12 (stereo not shown) — IC50 (GABA-A receptor; alpha-1/beta-3/gamma-2 (Homo sapiens, UniProt P14867+P18507+P28472); photoaffinity labelling; with: GABA): 33000 nM
COC(=O)C1=C(C)NC(C)=C(C(=O)OC(C)(C)CN(C)CCC(c2ccccc2)c2ccccc2)C1c1cccc([N+](=O)[O-])c1 (stereo not shown) — IC50 (Replicase polyprotein 1ab, main protease (rep, Severe acute respiratory syndrome coronavirus 2, UniProt P0DTD1); inhibitor; literature value): 16200 nM
C=CCN(CC=C)CCc1c[nH]c2ccccc12 — Ki (Histamine H1 receptor (HRH1, Homo sapiens, UniProt P35367); binding; cloned human receptor; with: [3H]pyrilamine): 127 nM
CCCC(C(=O)c1ccc2c(c1)OCO2)N1CCCC1 (stereo not shown) — IC50 (Slc6a2; uptake; rat brain synaptosomes): 26 ± 8 nM
CCCC(NC)C(=O)c1ccccc1 (stereo not shown) — IC50 (SLC6A3; [3H]dopamine uptake, inhibitor; HEK293 expressing SLC6A3): 176 ± 8.9 nM
CN1C/C(=C\c2ccc(Cl)cc2Cl)C/C(=C/c2ccc(Cl)cc2Cl)C1 — Ki (Slc6a3; inhibitor): 6900 nM

Excerpt of the above:
CN1C/C(=C\c2ccc(Cl)cc2Cl)C/C(=C/c2ccc(Cl)cc2Cl)C1 — Ki (Slc6a3; inhibitor): 6900 nM
CCOC(=O)c1cncn1C(C)c1cccc2ccccc12 (stereo not shown) — IC50 (GABA-A receptor; alpha-1/beta-3/gamma-2 (Homo sapiens, UniProt P14867+P18507+P28472); photoaffinity labelling; with: GABA): 33000 nM
